Published values of several laboratories.
Compare with care: the assays were run in different laboratories. ± marks the error that the study gave.

Molecule	test	system	setting	how to read	endpoint	result
Pillar[6]MaxQ	host, isothermal titration calorimetry	sodium phosphate buffer	pH 7.4, with: methamphetamine		Kd	101 nM
CO[C@]12CC[C@@]3(C[C@@H]1[C@](C)(O)C(C)(C)C)[C@H]1Cc4ccc(O)c5c4[C@@]3(CCN1CC1CC1)[C@H]2O5	agonist, PPQ-induced writhing test	mice			ED50	0.016 mg/kg
NC(=O)[C@H](Cc1ccccc1)NC(=O)[C@H](CCCN=C(N)N)NC(=O)C12CC3CC(CC(C3)C1)C2	warm-water tail withdrawal	mouse	intracerebroventricular, 10 nmol		tail-withdrawal latency	no effect
CN(C(=O)Cc1ccc(Cl)c(Cl)c1)[C@@H]1CCCC[C@H]1N1CCCC1		cocaine-discriminating rats	dose not given, highest doses tested, with: cocaine 5.6 mg/kg training	baseline: baseline	response rate	~10%
N#Cc1c(-c2ccc(-c3no[n+]([O-])c3C#N)s2)no[n+]1[O-]	chemiluminescence	solution	with: cysteine		NO release	1.19 mol/mol
CO[C@]12CC[C@@]3(C[C@@H]1[C@@](C)(O)C(C)(C)C)[C@H]1Cc4c(Cl)cc(O)c5c4[C@@]3(CCN1CC1CC1)[C@H]2O5	antagonist, tail-flick test	mice	with: morphine		AD50	4.7 mg/kg
CC[C@H](C)[C@@H]1NC(=O)[C@H](CCC(=O)O)NC(=O)[C@@H]2CCCN2C(=O)[C@H](Cc2c[nH]cn2)NC(=O)[C@H](CC(=O)O)NC(=O)[C@H](Cc2ccc(O)cc2)NC(=O)[C@H](CC(N)=O)NC(=O)[C@@H]2CSSC[C@@H]3NC(=O)CNC(=O)CNC(=O)CNC(=O)[C@H](C)NC(=O)[C@H](C)NC(=O)CNC(=O)CNC(=O)[C@H](CSSC[C@H](NC3=O)C(=O)N[C@@H](CO)C(=O)N[C@@H](CC(=O)O)C(=O)N3CCC[C@H]3C(=O)N[C@@H](CCCNC(=N)N)C(=O)N2)NC1=O	barium current, inhibitor, electrophysiology		0.2 µM, Cav2.3d splice variant		inhibition	23 ± 2.9%
CCC(C)C(CC)C(N)=O (stereo not drawn)	subcutaneous metrazol seizure	mouse	intraperitoneal		ED50	32 mg/kg
CN1CC[C@]23c4c5ccc(O)c4O[C@H]2[C@@H](O)C=C[C@H]3[C@H]1C5	cAMP inhibition, GloSensor		unit not given	baseline: MOR over KOR	ΔΔlog(Emax/EC50)	2.33

For quick reference, copied from above:
Molecule	test	system	setting	how to read	endpoint	result
N#Cc1c(-c2ccc(-c3no[n+]([O-])c3C#N)s2)no[n+]1[O-]	chemiluminescence	solution	with: cysteine		NO release	1.19 mol/mol
